# Published values from different studies.
# Protocols differ between the studies behind these lines.
# ache: Acetylcholinesterase (ache, Electrophorus electricus, UniProt O42275)
# Sequence of UniProt O42275 (whole entry, looked up): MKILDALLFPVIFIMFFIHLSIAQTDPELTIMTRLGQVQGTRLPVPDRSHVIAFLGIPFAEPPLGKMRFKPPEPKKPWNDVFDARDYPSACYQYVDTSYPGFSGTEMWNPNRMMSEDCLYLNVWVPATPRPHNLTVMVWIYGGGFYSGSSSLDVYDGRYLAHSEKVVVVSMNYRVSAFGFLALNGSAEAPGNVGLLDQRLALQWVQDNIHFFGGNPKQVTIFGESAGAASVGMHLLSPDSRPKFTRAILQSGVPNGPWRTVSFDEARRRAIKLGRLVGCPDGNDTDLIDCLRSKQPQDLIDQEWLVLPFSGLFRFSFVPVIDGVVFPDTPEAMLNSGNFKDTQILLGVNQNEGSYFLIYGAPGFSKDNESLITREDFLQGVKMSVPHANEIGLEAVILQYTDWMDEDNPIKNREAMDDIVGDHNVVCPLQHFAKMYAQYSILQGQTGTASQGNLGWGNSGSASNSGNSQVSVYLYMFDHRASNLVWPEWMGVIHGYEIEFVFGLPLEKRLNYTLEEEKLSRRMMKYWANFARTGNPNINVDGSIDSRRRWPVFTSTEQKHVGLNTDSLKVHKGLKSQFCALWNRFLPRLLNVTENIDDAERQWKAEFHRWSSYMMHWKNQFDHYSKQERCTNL
# Sequence of UniProt Q13224 (whole entry, looked up): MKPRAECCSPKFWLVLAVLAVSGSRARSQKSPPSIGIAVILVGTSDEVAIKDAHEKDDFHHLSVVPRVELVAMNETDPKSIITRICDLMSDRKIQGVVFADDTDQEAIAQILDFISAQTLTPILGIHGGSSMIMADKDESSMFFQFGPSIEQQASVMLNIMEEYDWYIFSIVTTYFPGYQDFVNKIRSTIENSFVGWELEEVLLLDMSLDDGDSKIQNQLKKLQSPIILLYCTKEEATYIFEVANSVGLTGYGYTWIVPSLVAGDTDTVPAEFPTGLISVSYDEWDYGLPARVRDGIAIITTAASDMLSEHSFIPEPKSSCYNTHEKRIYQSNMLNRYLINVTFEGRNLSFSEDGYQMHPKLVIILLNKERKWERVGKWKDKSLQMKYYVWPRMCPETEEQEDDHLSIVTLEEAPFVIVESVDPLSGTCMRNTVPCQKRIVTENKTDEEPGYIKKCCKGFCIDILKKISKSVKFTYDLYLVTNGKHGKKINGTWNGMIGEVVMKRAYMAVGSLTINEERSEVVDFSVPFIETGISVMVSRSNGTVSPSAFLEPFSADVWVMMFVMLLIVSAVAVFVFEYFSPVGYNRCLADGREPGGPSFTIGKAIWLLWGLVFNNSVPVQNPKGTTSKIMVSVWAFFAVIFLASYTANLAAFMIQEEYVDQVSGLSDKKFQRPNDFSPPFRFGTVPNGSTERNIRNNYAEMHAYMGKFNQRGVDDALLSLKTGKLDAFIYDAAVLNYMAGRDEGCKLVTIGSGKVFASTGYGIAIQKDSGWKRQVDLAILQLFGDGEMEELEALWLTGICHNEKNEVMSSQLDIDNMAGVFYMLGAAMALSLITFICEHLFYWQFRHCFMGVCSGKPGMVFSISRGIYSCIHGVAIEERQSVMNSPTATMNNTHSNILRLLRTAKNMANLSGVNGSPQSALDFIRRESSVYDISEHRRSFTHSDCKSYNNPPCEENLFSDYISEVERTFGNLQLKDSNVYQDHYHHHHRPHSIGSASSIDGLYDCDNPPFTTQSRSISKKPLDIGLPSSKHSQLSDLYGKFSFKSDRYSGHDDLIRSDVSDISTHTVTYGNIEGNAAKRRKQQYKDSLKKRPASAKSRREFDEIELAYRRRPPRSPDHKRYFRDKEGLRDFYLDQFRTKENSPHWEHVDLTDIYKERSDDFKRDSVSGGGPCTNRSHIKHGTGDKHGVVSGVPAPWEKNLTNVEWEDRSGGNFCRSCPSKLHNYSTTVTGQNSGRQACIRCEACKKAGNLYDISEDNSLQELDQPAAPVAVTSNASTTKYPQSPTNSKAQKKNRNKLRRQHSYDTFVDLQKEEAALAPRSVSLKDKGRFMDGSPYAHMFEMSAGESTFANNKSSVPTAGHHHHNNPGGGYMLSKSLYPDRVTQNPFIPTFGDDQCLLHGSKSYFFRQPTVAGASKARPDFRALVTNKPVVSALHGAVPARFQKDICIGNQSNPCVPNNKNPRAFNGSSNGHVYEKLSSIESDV
# Sequence of UniProt O43148 (whole entry, looked up): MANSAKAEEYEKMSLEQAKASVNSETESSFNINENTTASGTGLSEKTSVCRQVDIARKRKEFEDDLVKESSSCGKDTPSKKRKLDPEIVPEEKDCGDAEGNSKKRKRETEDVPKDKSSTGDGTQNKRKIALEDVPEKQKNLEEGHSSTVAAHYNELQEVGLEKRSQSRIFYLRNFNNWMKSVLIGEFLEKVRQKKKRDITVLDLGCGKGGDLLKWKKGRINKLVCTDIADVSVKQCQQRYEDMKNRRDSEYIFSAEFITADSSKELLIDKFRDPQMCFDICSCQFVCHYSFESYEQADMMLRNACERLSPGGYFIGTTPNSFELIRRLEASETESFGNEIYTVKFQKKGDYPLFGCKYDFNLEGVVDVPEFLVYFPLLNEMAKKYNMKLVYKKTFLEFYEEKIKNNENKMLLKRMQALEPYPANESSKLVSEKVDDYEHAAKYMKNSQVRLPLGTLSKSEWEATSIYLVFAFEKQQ
# Sequence of UniProt Q9Y2K2 (whole entry, looked up): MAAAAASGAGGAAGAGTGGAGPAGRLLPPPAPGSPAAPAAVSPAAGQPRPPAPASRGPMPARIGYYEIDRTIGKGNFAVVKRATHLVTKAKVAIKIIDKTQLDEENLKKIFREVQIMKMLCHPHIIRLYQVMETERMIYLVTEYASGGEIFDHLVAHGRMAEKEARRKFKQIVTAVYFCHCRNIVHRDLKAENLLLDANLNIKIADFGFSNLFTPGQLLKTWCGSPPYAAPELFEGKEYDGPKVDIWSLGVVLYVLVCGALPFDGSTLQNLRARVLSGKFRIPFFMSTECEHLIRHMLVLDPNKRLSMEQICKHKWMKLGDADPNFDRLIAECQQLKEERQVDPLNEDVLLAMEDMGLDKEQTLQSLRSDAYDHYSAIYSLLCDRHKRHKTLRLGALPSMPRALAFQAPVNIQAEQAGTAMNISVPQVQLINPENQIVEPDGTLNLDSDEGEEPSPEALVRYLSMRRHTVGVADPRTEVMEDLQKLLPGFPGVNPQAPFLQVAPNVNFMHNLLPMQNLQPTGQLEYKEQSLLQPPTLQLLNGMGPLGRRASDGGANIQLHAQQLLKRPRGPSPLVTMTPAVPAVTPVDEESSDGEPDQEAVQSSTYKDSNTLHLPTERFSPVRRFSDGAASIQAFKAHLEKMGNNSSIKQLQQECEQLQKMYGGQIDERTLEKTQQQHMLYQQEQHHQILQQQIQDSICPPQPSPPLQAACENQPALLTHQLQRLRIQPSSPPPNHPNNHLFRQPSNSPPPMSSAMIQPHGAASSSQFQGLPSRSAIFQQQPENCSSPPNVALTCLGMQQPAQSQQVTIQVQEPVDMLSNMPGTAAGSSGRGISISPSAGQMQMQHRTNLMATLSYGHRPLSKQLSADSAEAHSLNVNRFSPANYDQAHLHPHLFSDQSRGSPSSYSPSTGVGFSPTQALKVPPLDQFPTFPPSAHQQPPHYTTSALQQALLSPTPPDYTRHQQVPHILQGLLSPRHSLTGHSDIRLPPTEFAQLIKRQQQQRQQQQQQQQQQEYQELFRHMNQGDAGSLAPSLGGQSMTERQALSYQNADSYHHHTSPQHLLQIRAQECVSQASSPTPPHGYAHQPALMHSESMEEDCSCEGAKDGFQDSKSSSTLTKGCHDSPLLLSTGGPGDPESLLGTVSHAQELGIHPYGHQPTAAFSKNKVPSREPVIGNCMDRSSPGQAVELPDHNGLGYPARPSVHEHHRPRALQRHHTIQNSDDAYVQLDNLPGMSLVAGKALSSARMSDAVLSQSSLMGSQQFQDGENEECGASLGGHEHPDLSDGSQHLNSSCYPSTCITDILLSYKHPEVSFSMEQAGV
# Sequence of UniProt P51957 (whole entry, looked up): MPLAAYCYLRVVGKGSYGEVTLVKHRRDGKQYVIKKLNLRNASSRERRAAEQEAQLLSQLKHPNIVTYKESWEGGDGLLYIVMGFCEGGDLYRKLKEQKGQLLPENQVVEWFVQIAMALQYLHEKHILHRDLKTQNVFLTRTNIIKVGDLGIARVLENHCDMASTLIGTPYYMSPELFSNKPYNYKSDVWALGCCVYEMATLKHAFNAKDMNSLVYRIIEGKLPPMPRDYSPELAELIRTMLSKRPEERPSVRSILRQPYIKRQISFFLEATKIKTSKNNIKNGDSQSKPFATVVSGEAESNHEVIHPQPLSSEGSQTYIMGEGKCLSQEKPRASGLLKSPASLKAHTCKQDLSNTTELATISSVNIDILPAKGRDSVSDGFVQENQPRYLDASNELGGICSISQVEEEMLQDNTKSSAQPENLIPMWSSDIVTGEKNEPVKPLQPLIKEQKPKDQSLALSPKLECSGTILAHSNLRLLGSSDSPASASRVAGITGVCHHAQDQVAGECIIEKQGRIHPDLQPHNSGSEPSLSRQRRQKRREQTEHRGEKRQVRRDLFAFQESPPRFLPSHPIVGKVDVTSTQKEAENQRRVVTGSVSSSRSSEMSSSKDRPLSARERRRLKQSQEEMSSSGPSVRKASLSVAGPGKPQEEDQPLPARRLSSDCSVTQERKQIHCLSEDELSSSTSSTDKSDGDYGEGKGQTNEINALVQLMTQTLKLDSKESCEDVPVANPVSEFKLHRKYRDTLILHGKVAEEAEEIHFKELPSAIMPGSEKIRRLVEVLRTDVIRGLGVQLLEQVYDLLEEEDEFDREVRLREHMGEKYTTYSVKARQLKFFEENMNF
# Sequence of UniProt P30542 (whole entry, looked up): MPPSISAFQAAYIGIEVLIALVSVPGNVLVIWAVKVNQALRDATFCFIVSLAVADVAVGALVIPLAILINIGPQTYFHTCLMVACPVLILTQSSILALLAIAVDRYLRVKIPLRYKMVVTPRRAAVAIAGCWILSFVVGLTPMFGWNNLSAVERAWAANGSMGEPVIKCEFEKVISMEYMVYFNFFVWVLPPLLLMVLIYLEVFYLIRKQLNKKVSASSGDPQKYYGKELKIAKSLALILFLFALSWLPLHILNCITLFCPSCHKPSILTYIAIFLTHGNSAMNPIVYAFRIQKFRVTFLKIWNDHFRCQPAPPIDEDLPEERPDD
SMILES,target,assay,conditions,inhibition [%]
O=C1c2ccccc2CCCN1CCCCN1CCN(c2cccc(Cl)c2Cl)CC1,"5-hydroxytryptamine receptor 7 (HTR7, Homo sapiens, UniProt P34969)",radioligand binding,"concentration not given, with: [3H]LSD",101
CN(C)[C@H]1C[C@@]23CC[C@@]4(O2)C(=CC[C@]2(C)[C@@H](c5ccc6ccncc6c5)CC[C@H]24)C=C3[C@@H](O)[C@@H]1O,"Tyrosine-protein kinase CSK (CSK, Homo sapiens, UniProt P41240)","ATP probe labelling, inhibitor, KiNativ profiling",0.1 µM,-5.7
CCc1nnc(-c2c(OC)cc(-c3cnc4cc(-c5cnn(C)c5)ccn34)cc2OC)o1,"Glucocorticoid receptor (NR3C1, Homo sapiens, UniProt P04150)","agonist radioligand, radioligand binding","10 µM, SafetyScreen44 GR",-3
CC(=O)NC[C@@H]1[C@@H](O)C[C@H]2[C@H](O)C[C@@H](CO)N12,human placental β-N-acetylglucosaminidase,,"0.342 µM, run 1, with: p-nitrophenyl GlcNAc",81.6
O=C(CN1CN(c2ccccc2)C2(CCN(C(=O)c3cnc4[nH]ncc4c3)CC2)C1=O)NCC(F)(F)F,"Serine/threonine-protein kinase SIK3 (SIK3, Homo sapiens, UniProt Q9Y2K2)",inhibitor,concentration not given,< 50
CN[C@@H]1[C@H](O)[C@H](NC)[C@H]2O[C@]3(O)[C@H](O[C@@H]2[C@H]1O)O[C@H](C)C[C@H]3NC(=O)Cc1ccc(Cl)cn1,"Adenosine receptor A1 (ADORA1, Homo sapiens, UniProt P30542)","ligand displacement, radioligand",10 µM,5
CS(C)(=O)=Nc1ccc(-c2ccc(-c3nc4cc(O[C@@H]5CO[C@H]6[C@@H]5OC[C@H]6O)[nH]c4cc3F)cc2)cc1,"Serine/threonine-protein kinase Sgk3 (SGK3, Homo sapiens, UniProt Q96BR1)","enzyme activity, inhibitor",10 µM,-9
NCCc1c[nH]c2ccc(Cl)cc12,ache,"enzyme activity, inhibitor, Ellman",20 µM,40.3
O=C(NC1CCN(c2ncnc3[nH]cnc23)CC1)c1cccc(NS(=O)(=O)c2ccc(C(F)(F)F)cc2)c1,"mRNA cap guanine-N(7) methyltransferase (RNMT, Homo sapiens, UniProt O43148)","enzyme activity, inhibitor",3.125 µM,7.15
CC(C)[C@H]1NC(=O)C[C@H]2/C=C/CCSSC[C@@H](NC1=O)C(=O)N[C@H](Cc1cccc3ccccc13)C(=O)NCC(=O)O2,"Serine/threonine-protein kinase Nek4 (NEK4, Homo sapiens, UniProt P51957)","enzyme activity, inhibitor",10 µM,-0.168
N[C@H](C(=O)N1CCCC1)C1CCN(c2nccc3c(-c4ncc(Cl)cc4Cl)cccc23)CC1,"Proto-oncogene tyrosine-protein kinase Src (SRC, Homo sapiens, UniProt P12931)","enzyme activity, inhibitor",10 µM,4
C/C(=N\OCCCN1CCCCC1)c1ccc(C(F)(F)F)cc1,"Glutamate NMDA receptor; GRIN1/GRIN2B (GRIN1/GRIN2B, Homo sapiens, UniProt Q05586+Q13224)","ion current, antagonist, manual patch clamp",10 µM,19.1
c1ccc2c(c1)CCNC2,ache,"enzyme activity, inhibitor, Ellman",20 µM,35.2

# Repeated from above:
SMILES,target,assay,conditions,inhibition [%]
CS(C)(=O)=Nc1ccc(-c2ccc(-c3nc4cc(O[C@@H]5CO[C@H]6[C@@H]5OC[C@H]6O)[nH]c4cc3F)cc2)cc1,"Serine/threonine-protein kinase Sgk3 (SGK3, Homo sapiens, UniProt Q96BR1)","enzyme activity, inhibitor",10 µM,-9
